Results pooled from the literature.
Protocols differ between the studies behind these lines. ± marks the error that the study gave.
B1: UGT1A9 (Homo sapiens, UniProt O60656); chain GKLLVVPMDGSHWFTMRSVVEKLILRGHEVVVVMPEVSWQLGRSLNCTVKTYSTSYTLEDLDREFKAFAHAQWKAQVRSIYSLLMGSYNDIFDLFFSNCRSLFKDKKLVEYLKESSFDAVFLDPFDNCGLIVAKYFSLPSVVFARGILCHYLEEGAQCPAPLSYVPRILLGFSDAMTFKERVRNHIMHLEEHLLCHRFFKNALEIASEILQTPVTEYDLYSHTSIWLLRTDFVLDYPKPVMPNMIFIGGINCHQGKPLPMEFEAYINASGEHGIVVFSLGSMVSEIPEKKAMAIADALGKIPQTVLWRYTGTRPSNLANNTILVKWLPQNDLLGHPMTRAFITHAGSHGVYESICNGVPMVMMPLFGDQMDNAKRMETKGAGVTLNVLEMTSEDLENALKAVINDKSYKENIMRLSSLHKDRPVEPLDLAVFWVEFVMRHKGAPHLRPAAHDLTWYQYHSLDVIGFLLAVVLTVAFITFKCCAYGYRKCLGKKGRVKKAHKSKTH
Chain of UniProt P52926 (whole entry, looked up): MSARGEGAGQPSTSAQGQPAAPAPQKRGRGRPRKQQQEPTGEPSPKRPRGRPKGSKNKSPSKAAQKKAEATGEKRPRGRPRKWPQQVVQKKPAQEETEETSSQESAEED
Chain of UniProt P0A6X3 (whole entry, looked up): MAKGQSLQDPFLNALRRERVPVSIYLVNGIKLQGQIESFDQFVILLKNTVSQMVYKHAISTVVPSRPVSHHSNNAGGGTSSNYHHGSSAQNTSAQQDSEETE
Chain of UniProt Q61164 (whole entry, looked up): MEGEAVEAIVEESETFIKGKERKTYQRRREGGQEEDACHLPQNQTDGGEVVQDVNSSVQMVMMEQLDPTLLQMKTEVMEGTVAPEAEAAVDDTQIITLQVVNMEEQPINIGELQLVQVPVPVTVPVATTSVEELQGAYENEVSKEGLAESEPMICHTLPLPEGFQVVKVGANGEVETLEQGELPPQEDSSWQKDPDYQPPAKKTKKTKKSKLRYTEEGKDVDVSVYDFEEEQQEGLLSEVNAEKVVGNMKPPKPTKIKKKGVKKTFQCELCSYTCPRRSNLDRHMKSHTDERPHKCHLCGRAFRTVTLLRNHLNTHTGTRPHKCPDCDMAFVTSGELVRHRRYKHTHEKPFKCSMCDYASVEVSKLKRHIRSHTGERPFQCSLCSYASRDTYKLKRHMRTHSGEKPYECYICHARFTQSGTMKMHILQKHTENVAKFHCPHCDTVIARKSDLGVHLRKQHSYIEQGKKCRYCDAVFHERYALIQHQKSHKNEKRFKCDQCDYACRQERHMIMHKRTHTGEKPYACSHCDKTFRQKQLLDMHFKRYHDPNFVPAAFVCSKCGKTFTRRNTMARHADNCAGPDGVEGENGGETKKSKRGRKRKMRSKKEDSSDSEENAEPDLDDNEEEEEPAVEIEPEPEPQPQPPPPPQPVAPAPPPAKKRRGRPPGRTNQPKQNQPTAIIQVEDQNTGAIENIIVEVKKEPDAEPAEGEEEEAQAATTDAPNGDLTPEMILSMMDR
Chain of UniProt Q9H0Z9 (whole entry, looked up): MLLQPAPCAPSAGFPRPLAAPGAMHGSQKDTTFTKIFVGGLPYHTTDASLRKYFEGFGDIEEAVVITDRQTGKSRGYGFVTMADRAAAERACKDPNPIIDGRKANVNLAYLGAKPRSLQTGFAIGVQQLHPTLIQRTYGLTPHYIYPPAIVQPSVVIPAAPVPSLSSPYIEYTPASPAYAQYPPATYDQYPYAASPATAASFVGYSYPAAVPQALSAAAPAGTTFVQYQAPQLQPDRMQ
Chain of UniProt P0ACF8 (whole entry, looked up): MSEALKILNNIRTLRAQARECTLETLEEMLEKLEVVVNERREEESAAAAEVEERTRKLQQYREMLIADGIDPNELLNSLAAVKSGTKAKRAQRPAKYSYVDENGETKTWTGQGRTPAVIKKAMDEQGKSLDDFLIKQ
Chain of UniProt P0A8P8 (whole entry, looked up): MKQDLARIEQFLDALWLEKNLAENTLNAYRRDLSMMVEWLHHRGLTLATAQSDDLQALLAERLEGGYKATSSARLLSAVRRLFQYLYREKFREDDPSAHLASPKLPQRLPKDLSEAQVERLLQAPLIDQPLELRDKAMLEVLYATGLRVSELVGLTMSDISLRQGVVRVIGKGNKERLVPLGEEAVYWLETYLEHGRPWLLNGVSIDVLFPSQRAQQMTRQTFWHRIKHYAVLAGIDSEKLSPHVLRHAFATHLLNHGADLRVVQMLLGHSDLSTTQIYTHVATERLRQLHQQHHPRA

| Substance | tested on | test | system | setting | quantity | value |
| --- | --- | --- | --- | --- | --- | --- |
| CATTTTCCTCACCCCTATCTAAATGTTTATAACTTTAATTCTCCAACCTAGAGTTGGTTCAAATCTAGGTTGTCAACCTTAGGTTGAATGCACAATATATAAACTTTGCGCCACAGATATGGGTAGGTGATGAATATG (dsDNA) | HTH arsR-type domain-containing protein (Pyrococcus furiosus, UniProt Q8U4J2) | EMSA | double-stranded DNA, one strand shown | – | binding | binds |
| TCGACTGTAAATGACATAGGAAAAC (dsDNA (Homo sapiens)) | HMGA2 full length assumed (Homo sapiens, UniProt P52926) | EMSA | double-stranded DNA, one strand shown | – | Ka | 3.1e+06 M⁻¹ |
| GGGAGCACUCUGUCAUCCAGGCUAGAGUGCAGUGGCGUGAUCUCGGCUGACUGCAACCUCUGCCUCCCGGGUUCAAGUGAUUCUCCUGCCUCAAUCUCUCUCCCCAGAAGCUGGGAUUACAGGUGUGUGCCACCACACCCGGCUAAUUUUUUUUUUUUUUUUUGAGAUGGAGUCUAGCUCUGUCAUCCAGGCUGGAGUGCAGUGGUGUGAUCUCGG (ssRNA) | RBM38 full length assumed (Homo sapiens, UniProt Q9H0Z9) | EMSA | – | – | binding | binds |
| GACGGCACCACCAGGCUUCUGUAACUUAUAAAAUGGCGGCGUCCACAUGUAUACGUCCUUCCCGGGAUUAGCCAGGCAGCUAGAGGAUGACUUAAUAAGGAGAGUGGAGAAACUGGCCAAUUAAUGAACAUGCCCUGAUCAUUAAUCCACCACUGAAGGAAGUCAGAGCAGAAACUCAAGCAGGGACUUGAAGAAGAAACCAUGGAGGAAUACGGCU (ssRNA) | Ctcf full length assumed (Mus musculus, UniProt Q61164) | EMSA | – | – | binding | binds weakly |
| GAGTTGCGGGCACTTTATGACAGATTCATTGTTAGACTTTCAATTCCTTTTGGGATTAATCTTGAAACAATTTTCTCTTAGTTCGTCAGCAATAGAGAGTTCCTTTCAATTCCTTTTGGGATTAATCACTATTGATGAAGTTGCGGAG (dsDNA (Sulfolobus solfataricus)) | CRISPR-associated protein full length assumed (Saccharolobus solfataricus, UniProt Q97ZW9) | competition | double-stranded DNA, one strand shown | weaker binding | binding | binds weakly |
| CCCGGATCCGTAGTGACCAAAGCTATATTTACCAACGAATGTAGATGAAAAAATCATCTCCTGCGTTCCCCCATATCTCTAGGATAAAAAGGAATGTAACAATCTCATGGCGTAAGCTGACGAATCAGCAGGAATAATCGCTAGGGACCTAAGAATTAGCATGATAATAGCCACTAAGAAATTACTGCGCTCCATGAAATAGCCATTTTGTGGCAAATGGAGTTGACTAATAATGTCATATGTGAGACGGCTAGTTGAACGAATATTAAATTTTGCTGAATTTTTTATGTCGACGGG (dsDNA) | hns full length assumed (Escherichia coli, UniProt P0ACF8) | DNase I footprinting | double-stranded DNA, one strand shown | – | binding | binds |
| B1 (UGT1A9) | Oc1ccc(/C=C/c2cc(O)cc(O)c2)cc1 | steady-state kinetics | – | pH 7.4, 37 °C | Vmax | 0.000196 µmol/min/mg |
| GGGAGAUUAAUUUGAAUACAAUGCAAUUCUCGAGGACUGAAGUUUCUCGCAAUUAAAAUUUAUCAGUUUUACUUUCUGCUCUCUGGAAACGCCUGCUUCUUUUUUACCUGAGAGCAUUUUUUCGCAUUCUGAUUUCGUUAGUUUAGAUUUUGAAUAUCUUGUCCAGUUAGUAGGAGUGCCACCUUCCUUUUCAAUAGUGGCGGUAAUUUUAUACAU (ssRNA) | hfq full length assumed (Escherichia coli, UniProt P0A6X3) | EMSA | – | added: Mg2+ 1 mM | binding | binds |
| GAGUUGAGUUGAGUUGAGUUGAGUUGAGUUGAGUUGAGUUGAGUUGAGUUGAGUU (ssRNA; single strand) | mtrB full length assumed T30V (Bacillus subtilis, UniProt P19466) | filter binding | – | added: L-tryptophan 1 mM | Kd | 144 ± 22 nM |
| GGTGCGCATAATGTATATTATGTTAAAT (dsDNA (Escherichia coli)) | xerD full length assumed (Escherichia coli, UniProt P0A8P8) | EMSA | double-stranded DNA, one strand shown | – | K1/2 | 10 nM |

Some of these lines once more:
| Substance | tested on | test | system | setting | quantity | value |
| --- | --- | --- | --- | --- | --- | --- |
| GGTGCGCATAATGTATATTATGTTAAAT (dsDNA (Escherichia coli)) | xerD full length assumed (Escherichia coli, UniProt P0A8P8) | EMSA | double-stranded DNA, one strand shown | – | K1/2 | 10 nM |
